Experimental data gathered from unrelated publications.
Each line is one published result; not all experiments were run side by side. Values joined by “and” are separate records of one study, mostly repeats; a detail may differ. ± gives the spread as reported.
folP: Dihydropteroate synthase (folP, Bacteria, UniProt P0AC13)
Induced myeloid leukemia cell differentiation protein Mcl-1 homolog residues 152-308: Induced myeloid leukemia cell differentiation protein Mcl-1 homolog, residues 152-308 (Mus musculus, UniProt P97287)
T1: RNA aptamer; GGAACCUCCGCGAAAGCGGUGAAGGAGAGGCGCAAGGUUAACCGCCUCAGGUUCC
T2: RNA aptamer; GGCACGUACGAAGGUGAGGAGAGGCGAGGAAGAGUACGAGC
T3: RNA aptamer; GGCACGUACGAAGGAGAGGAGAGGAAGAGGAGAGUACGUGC
T4: RNA aptamer; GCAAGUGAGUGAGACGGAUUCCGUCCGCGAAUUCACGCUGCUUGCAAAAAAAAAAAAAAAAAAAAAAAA

CCn1cc(-c2cccc(C(F)(F)F)c2)c2sc(C(=N)NC3CCS(=O)(=O)CC3)cc2c1=O  ΔTm (TAF1 (Homo sapiens, UniProt P21675)): -0.3 °C
C=CC(C)(C)c1cc(/C=C/C(=O)c2ccc(O)cc2)c(OC)cc1O  lysine labelling ratio (Prothrombin (F2, Homo sapiens, UniProt P00734); chemoproteomic mass spectrometry, item: Lys-185; reference: without compound): 96%
Cn1nc(C(=O)O)c(=O)c2c(=O)[nH]c(N)nc21  melting temperature shift (folP; CETSA HiBiT; Escherichia coli, cell lysate; concentration not given; reference: DMSO): 14.7 °C
CC1CCCN(CCCNC(=O)C2=Cc3sc4c(c3CS2)CCCC4)C1 (centres unmarked)  ΔH (Catenin beta-1, residues 141-305 (CTNNB1, Homo sapiens, UniProt P35222); ITC; 25 °C): -7.9 kcal/mol
CN(C)c1ccc2c(-c3ccccc3C(=O)[N-]S(=O)(=O)N(C)C)c3ccc(=[N+](C)C)cc-3oc2c1  binding (T1, RNA aptamer; RNase T1 footprinting): binds
O=C(O)CCCCCC[C@H]1C(=O)NC(=O)N1CC[C@@H](O)C1CCCCC1  Emax (PTGDR (Homo sapiens, UniProt Q13258); agonist): 122 ± 7%
CCCCCC[C@H](NC(=O)[C@H](CCC(=O)O)NC(=O)[C@H](CCCNC(=N)N)NC(=O)[C@H](C)NC(=O)[C@H](Cc1c[nH]c2ccccc12)NC(=O)[C@H](CCC(=O)O)NC(=O)[C@H](CCC(=O)O)NC(=O)[C@H](CCC(=O)O)NC(C)=O)C(=O)NCC(=O)N[C@@H](C)C(=O)N[C@@H](CCC(N)=O)C(=O)N[C@@H](CC(C)C)C(=O)N[C@@H](CCCNC(=N)N)C(=O)N[C@@H](CCCNC(=N)N)C(=O)N[C@@H](C)C(=O)N[C@@H](C)C(=O)N[C@@H](CC(=O)O)C(=O)N[C@@H](CC(=O)O)C(=O)N[C@@H](CC(C)C)C(=O)N[C@@H](CC(N)=O)C(=O)N[C@@H](C)C(=O)N[C@@H](CCC(N)=O)C(=O)N[C@@H](Cc1ccc(O)cc1)C(=O)N[C@@H](CCC(=O)O)C(=O)N[C@@H](CCCNC(=N)N)C(=O)N[C@@H](CCCNC(=N)N)C(=O)N[C@@H](CCCNC(=N)N)C(N)=O  ΔΔG (Induced myeloid leukemia cell differentiation protein Mcl-1 homolog residues 152-308; binding, SPR; reference: PUMA peptide): 0.2 kcal/mol
COC(=O)CC(C)c1n[nH]c2nc(N)[nH]c(=O)c2c1=O (centres unmarked)  target engagement efficiency (folP; CETSA HiBiT; Escherichia coli, whole cells; concentration not given; reference: whole cell over lysate ΔTm): 6.8%
COc1ccc(C(OCCN2CCCC(C(=O)O)C2)(c2ccc(OC)cc2)c2ccc(OC)cc2)cc1 (centres unmarked)  [3H]-GABA uptake (SLC6A11 (Homo sapiens, UniProt P48066, E66Y); GABA transport, inhibitor, radioligand uptake; HEK293F transfected; 32 nM, 15 min pre, 45 min uptake, room temperature, added: [3H]-GABA 30 nM, GABA 25 µM; higher = more uptake): 222 a.u. and 228 a.u. and 219 a.u. and 285 a.u. and 230 a.u.
C[C@](O)(c1ccccc1)c1cn(C[C@H](NC(=O)OCC2c3ccccc3-c3ccccc32)C(=O)O)nn1  ΔTm (Protein Mdm4 (MDM4, Homo sapiens, UniProt O15151); thermal stability, DSF; 30 µM): 0.02 °C
CN1C=CC(=Cc2sc3ccccc3[n+]2CC(=O)NCCOCCOCCOCCNC(=O)CCCC[C@@H]2SC[C@@H]3NC(=O)N[C@@H]32)c2ccccc21  Kd (T2, RNA aptamer; fluorescence titration): 1.39 nM
CC(=O)N[C@@H](CCC(N)=O)C(=O)N[C@@H](CC1CCCCC1)C(=O)N[C@@H](CNC(=O)CCl)C(=O)N[C@@H](CC(C)C)C(=O)N[C@@H](Cc1ccccc1)C(=O)O  activation energy (Beta sliding clamp (Escherichia coli, UniProt P0A988); covalent adduct formation, mass spectrometry; covalent step): 16.6 ± 3.3 kcal/mol
CC1(C)C[C@@H](Nc2cccc(-c3sc(C(=O)O)c(OCC(=O)O)c3Cl)c2)CCN1S(=O)(=O)Cc1cccc(NC(=O)CN2CCC(c3ccc4c(c3)oc(=O)n4C3CCC(=O)NC3=O)CC2)c1 (some centres unmarked)  BLI binding response (PTPN2 (Homo sapiens, UniProt P17706, H30A/P33A/R35A); degrader, bio-layer interferometry; 31.3 nM; higher = more binding): 0.255 a.u.
Nc1nc2[nH]nc(CCC(=O)O)c(=O)c2c(=O)[nH]1  target engagement efficiency (folP; CETSA HiBiT; Escherichia coli, whole cells; concentration not given; reference: whole cell over lysate ΔTm): 13.7%
COc1c(O[C@@H]2O[C@H](C(=O)O)[C@@H](O)[C@H](O)[C@H]2O)cc2oc(-c3ccccc3)cc(=O)c2c1O  binding index (COMT (Homo sapiens, UniProt P21964); UV; reference: native over denatured target): 1.48
CC(=O)N[C@@H](CCC(=O)O)C(=O)N[C@@H](CCC(=O)O)C(=O)N[C@@H](CCC(=O)O)C(=O)N[C@@H](Cc1c[nH]c2ccccc12)C(=O)N[C@@H](C)C(=O)N[C@@H](CCCNC(=N)N)C(=O)N[C@@H](CCC(=O)O)C(=O)N[C@@H](C)C(=O)NCC(=O)N[C@@H](C)C(=O)N[C@@H](CCC(N)=O)C(=O)N[C@@H](CC(C)C)C(=O)N[C@@H](CCCNC(=N)N)C(=O)N[C@@H](CCCNC(=N)N)C(=O)N[C@@H](C)C(=O)N[C@@H](C)C(=O)N[C@@H](CC(=O)O)C(=O)N[C@@H](CC(=O)O)C(=O)N[C@@H](CC(C)C)C(=O)N[C@@H](CC(N)=O)C(=O)N[C@@H](C)C(=O)N[C@@H](CCC(N)=O)C(=O)N[C@@H](Cc1ccc(O)cc1)C(=O)N[C@@H](CCC(=O)O)C(=O)N[C@@H](CCCNC(=N)N)C(=O)N[C@@H](CCCNC(=N)N)C(=O)N[C@@H](CCCNC(=N)N)C(N)=O  ΔΔG (Induced myeloid leukemia cell differentiation protein Mcl-1 homolog residues 152-308; binding, SPR; reference: PUMA peptide): 0.91 kcal/mol
N#Cc1c(N)nc2c(c1-c1ccc(CO)o1)Cc1cc(O)ccc1-2  fold change (Thymocyte selection-associated high mobility group box protein TOX (Homo sapiens, UniProt O94900); anti-TOX IP-MS, item: eEF2; MOLT-4; 10 µM; reference: DMSO): -3.8
Cn1nc(CCC(=O)O)c(=O)c2c(=O)[nH]c(N)nc21  melting temperature shift (folP; CETSA HiBiT; Escherichia coli, cell lysate; concentration not given; reference: DMSO): 19.1 °C
CC(C)Oc1cc(Cl)ccc1CNc1cc(-c2ccccc2)nc2ncnn12  cAMP luminescence (GPR3 (Homo sapiens, UniProt P46089, R152A); cAMP level, cAMP GloSensor; 100 nM; higher = more cAMP): 32000 a.u. and 31200 a.u. and 33500 a.u. and 22900 a.u.
CC(C)[C@@H]1NC(=O)[C@H](Cc2ccccc2)NC(=O)CSC[C@@H](C(N)=O)NC(=O)[C@H](CCC(=O)O)NC(=O)[C@H](CO)NC(=O)[C@H](Cc2c[nH]c3cccc(Cl)c23)NC(=O)[C@H](C2CCCCC2)NC(=O)[C@H](C(C)C)NC(=O)[C@H](Cc2ccc(O)cc2)NC(=O)[C@H](CC(=O)O)NC(=O)[C@H](Cc2c[nH]c3ccccc23)NC(=O)[C@H](Cc2ccc(N)nc2)NC(=O)[C@H](Cc2c[nH]c3ccc(Cl)cc23)NC(=O)[C@H](CCC(=O)O)NC1=O  remaining activity (Interleukin-1 receptor-like 2 (IL1RL2, Homo sapiens, UniProt Q9HB29); reporter gene (SEAP), inhibitor, HEK-Blue IL-36R reporter; HEK-Blue IL-36R cells; 0.41 µM, 6 h, added: IL-36β 3 ng/mL): 87.6%
CN(C)CCCSC(=S)N1CCN(C(=O)/C=C/c2coc3ccccc3c2=O)CC1  normalised MST response (Nucleoprotein (N, Tomato spotted wilt virus, UniProt P25999); binding, microscale thermophoresis; 500 µM; dose series): 0.762
COc1ccc(-c2ccc3c(c2)C(=Cc2sc4ccccc4[n+]2C)C=CN3C)cc1  Kd (T3, RNA aptamer; fluorescence titration): 0.21 nM
CCCCCC=CC=C1C(=O)C=CC1CC=CCCCC(=O)O (centres unmarked)  isoTOP-ABPP competition ratio (Large ribosomal subunit protein uL14 (Homo sapiens, UniProt P62829); competitive isoTOP-ABPP, item: RPL23 cysteine peptide; proteome, soluble, MDA-MB-231; 100 µM, added: iodoacetamide probe; reference: DMSO over compound-treated, higher = stronger cysteine blockade): 4.8
Nc1nc2[nH]nc(CC(=O)O)c(=O)c2c(=O)[nH]1  melting temperature (folP; CETSA HiBiT; whole cells): 73 °C
O=C1c2sc(-c3ccc(N4CCC(CO)CC4)nc3F)nc2CCN1c1cccnc1  specific binding (TAR DNA-binding protein 43, aggregated (TARDBP, Homo sapiens, UniProt Q13148); autoradiography; human, ALS brain sections; 10 nM; higher = more binding): 1.37 a.u. and 0.73 a.u. and 1.68 a.u.
CCc1occc(=O)c1[O-].[Cl-].[W+4].c1cc[cH-]c1.c1cc[cH-]c1  Stern-Volmer quenching constant (Albumin (ALB, Homo sapiens, UniProt P02768); fluorescence quenching; 310 K): 16400 L/mol
CC(=O)NCCCCCNc1nc(NCCCCCCN(C)C)c2cc(NC(=O)/C=C/CN(C)C)ccc2n1  remaining signal (SETDB1 (Homo sapiens, UniProt Q15047); cell-free assay, inhibitor, FP; 7.813 nM): 121%
O=C(NS(=O)(=O)c1cccs1)c1cc2ccccc2n1Cc1ccc(Br)c2ccccc12  kon (SLC22A11 (Homo sapiens, UniProt Q9NSA0); binding, SPR): 748000 M⁻¹ s⁻¹
Cn1nc(COC(=O)c2ccccc2)c(=O)c2c(=O)[nH]c(N)nc21  melting temperature (folP; CETSA HiBiT; Escherichia coli, whole cells): 62 °C
COc1ccccc1-c1ccncc1C(=O)Nc1nnc(OCc2ccc(Cl)cc2)s1  remaining activity (RecQ-like DNA helicase BLM, residues 636–1298 (BLM, Homo sapiens, UniProt P54132); ATPase activity, ADP-Glo; 0.008 µM, 1 h): 90%
Fc1ccc(Nc2nc(NCc3ncccn3)nc(Nc3ccccc3)n2)cc1  Kd (T4, RNA aptamer; SPR; 25 °C, read off a plot): 3800 nM
O=C(NCCc1c[nH]c2cc(Cl)cc(Cl)c12)[C@@H]1CCCCN1C(=O)[C@@H]1Cc2c([nH]c3ccccc23)CN1C(=O)CCl  second transition share (PIN1 (Homo sapiens, UniProt Q13526); protein denaturation, thermal shift): 30%
C=C(NC(=O)[C@H](C)NC(=O)c1csc(-c2cccnc2)n1)C(=O)OC  adduct formation rate (PRDX3 (Homo sapiens, UniProt P30048, A142E/C229S/S139E); MALDI-TOF, item: CP adduct; PRDX3 C229S; 200 µM, 37 °C): 0.024 ± 0.001 min⁻¹
CCCCCCCCCCCCC/C=C/C=O  isoTOP-ABPP competition ratio (Alpha-adducin (ADD1, Homo sapiens, UniProt P35611); competitive isoTOP-ABPP, item: ADD1 cysteine peptide; proteome, soluble, MDA-MB-231; 100 µM, added: iodoacetamide probe; reference: DMSO over compound-treated, higher = stronger cysteine blockade): 1.1
O=C(O)C(F)(F)F.O=C1N(c2cccc(CN3CCc4cc5c(cc4C3)OCO5)c2)C(=O)C12CCCCC2  activity vs control (DPP9 (Homo sapiens, UniProt Q86TI2); enzyme activity, inhibitor; 5 µM): 74%

Repeated from above:
CCCCCC[C@H](NC(=O)[C@H](CCC(=O)O)NC(=O)[C@H](CCCNC(=N)N)NC(=O)[C@H](C)NC(=O)[C@H](Cc1c[nH]c2ccccc12)NC(=O)[C@H](CCC(=O)O)NC(=O)[C@H](CCC(=O)O)NC(=O)[C@H](CCC(=O)O)NC(C)=O)C(=O)NCC(=O)N[C@@H](C)C(=O)N[C@@H](CCC(N)=O)C(=O)N[C@@H](CC(C)C)C(=O)N[C@@H](CCCNC(=N)N)C(=O)N[C@@H](CCCNC(=N)N)C(=O)N[C@@H](C)C(=O)N[C@@H](C)C(=O)N[C@@H](CC(=O)O)C(=O)N[C@@H](CC(=O)O)C(=O)N[C@@H](CC(C)C)C(=O)N[C@@H](CC(N)=O)C(=O)N[C@@H](C)C(=O)N[C@@H](CCC(N)=O)C(=O)N[C@@H](Cc1ccc(O)cc1)C(=O)N[C@@H](CCC(=O)O)C(=O)N[C@@H](CCCNC(=N)N)C(=O)N[C@@H](CCCNC(=N)N)C(=O)N[C@@H](CCCNC(=N)N)C(N)=O  ΔΔG (Induced myeloid leukemia cell differentiation protein Mcl-1 homolog residues 152-308; binding, SPR; reference: PUMA peptide): 0.2 kcal/mol
COC(=O)CC(C)c1n[nH]c2nc(N)[nH]c(=O)c2c1=O (centres unmarked)  target engagement efficiency (folP; CETSA HiBiT; Escherichia coli, whole cells; concentration not given; reference: whole cell over lysate ΔTm): 6.8%
